Published values gathered from unrelated publications.
Compare with care: the assays were run in different laboratories. ± gives the spread as reported.
Cell line: HEK-293T

With `CC(C)(C)c1ccc(NC(=O)c2cnn(-c3ccc([N+](=O)[O-])cc3)c2C(F)(F)F)cc1` the inhibition was 19.7 ± 2.75% (cell viability, MTS; 50 µM, 72 h).
`C=CCOCO[C@H](C(=O)NC[C@@H]1C[C@@H](OC)C(C)(C)[C@@H](C[C@@H](COC)OC)O1)[C@@]1(OC)CC(=C)[C@@H](C)[C@@H](C)O1` has an IC50 of 4.04 ± 0.212 µM (cell viability, sulforhodamine B; 48 h, 37 °C, without H2O2).
For `COc1ccc(NC(=O)c2cnn(-c3ccc([N+](=O)[O-])cc3)c2C(F)(F)F)cc1OC`, the inhibition was 7.4 ± 0.69% (cell viability, MTS; 50 µM, 72 h).
`CCCCCCCCCCCCSCC(COCC(O)C[N+](C)(C)CCN)SCCCCCCCCCCCC` (centres unmarked) has an IC50 of 107 µM (cell growth or viability, MTT; 24 h).
The EC50 of `CCCCCCCCCCCCCC(=S)NCCCC[C@H](NS(C)(=O)=O)C(=O)N[C@H](C)C(=O)N[C@@H](CCCNC(=N)N)C(N)=O` is reported as 10.3 to 21.3 µM (cell growth or viability, MTT; 72 h).
With `CCCCCCCCCCCCSCC(COCC(O)C[N+](C)(C)C)SCCCCCCCCCCCC` (centres unmarked) the IC50 was 107 µM (cell growth or viability, MTT; 24 h).
`CCCCCCCCCCCCCC(=S)NCCCC[C@H](NC(=O)OCc1ccccc1)C(=O)Nc1ccccc1` has an EC50 of 12.4 to 35.9 µM (cell growth or viability, MTT; 72 h).
`O=S(=O)(c1ccc2c(c1)OCO2)n1cc(CCCCN2CCC(=C(c3ccc(F)c(F)c3)c3ccc(F)c(F)c3)CC2)nn1` gave an IC50 of 11.1 µM (cell growth or viability, ATP luminescence; 48 h).
`CC(=S)NCCCC[C@H](NC(=O)OCc1ccccc1)C(=O)N[C@@H](Cc1c[nH]c2ccccc12)C(=O)NC(C)C` gave an EC50 of 30.8 to 45.6 µM (cell growth or viability, MTT; 72 h).
`Cc1cc(C)nc(SCC(=O)Nc2ncc(Cc3cccc(OCc4cn(-c5ccc(Cl)cc5)nn4)c3)s2)n1` has an inhibition of 32.1 ± 7.6% (cell viability, MTS; 10 µM).
`O=C(NCCN1CCCC1)c1ccc2cc(C(=O)c3cc(O)c(O)c(O)c3)oc2c1` gave an IC50 of over 64 µg/mL (cell growth or viability, ATP luminescence; 24 h).
With `COCCn1cc(COc2cccc(Cc3cnc(NC(=O)CSc4nc(C)cc(C)n4)s3)c2)nn1` the inhibition was 20.8 ± 8.3% (cell viability, MTS; 10 µM).
`CCCCCCCCCCCCNC(=S)NCCCC[C@H](NC(=O)OCc1ccccc1)C(=O)N[C@H](C)C(=O)N[C@@H](CCCNC(=N)N)C(N)=O` gave an EC50 of 32.3 to 60.4 µM (cell growth or viability, MTT; 72 h).
`O=[N+]([O-])c1ccc(O)c(/C=N/Nc2ccccc2)c1` has an IC50 of 16 µM (cell growth or viability, MTT; 24 h).

Some of these lines once more:
With `CCCCCCCCCCCCSCC(COCC(O)C[N+](C)(C)C)SCCCCCCCCCCCC` (centres unmarked) the IC50 was 107 µM (cell growth or viability, MTT; 24 h).
